Measured values of several laboratories.
Numbered parts are unrelated; each lists some results of a single study. Positions count from the first letter of the parent shown.
UniProt Q9C966, sequence (whole entry, looked up): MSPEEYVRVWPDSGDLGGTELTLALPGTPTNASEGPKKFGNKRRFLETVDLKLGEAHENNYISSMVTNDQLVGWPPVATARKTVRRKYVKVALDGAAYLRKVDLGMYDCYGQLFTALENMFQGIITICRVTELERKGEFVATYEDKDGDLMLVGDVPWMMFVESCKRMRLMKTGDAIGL
UniProt Q94JM3, sequence (whole entry, looked up): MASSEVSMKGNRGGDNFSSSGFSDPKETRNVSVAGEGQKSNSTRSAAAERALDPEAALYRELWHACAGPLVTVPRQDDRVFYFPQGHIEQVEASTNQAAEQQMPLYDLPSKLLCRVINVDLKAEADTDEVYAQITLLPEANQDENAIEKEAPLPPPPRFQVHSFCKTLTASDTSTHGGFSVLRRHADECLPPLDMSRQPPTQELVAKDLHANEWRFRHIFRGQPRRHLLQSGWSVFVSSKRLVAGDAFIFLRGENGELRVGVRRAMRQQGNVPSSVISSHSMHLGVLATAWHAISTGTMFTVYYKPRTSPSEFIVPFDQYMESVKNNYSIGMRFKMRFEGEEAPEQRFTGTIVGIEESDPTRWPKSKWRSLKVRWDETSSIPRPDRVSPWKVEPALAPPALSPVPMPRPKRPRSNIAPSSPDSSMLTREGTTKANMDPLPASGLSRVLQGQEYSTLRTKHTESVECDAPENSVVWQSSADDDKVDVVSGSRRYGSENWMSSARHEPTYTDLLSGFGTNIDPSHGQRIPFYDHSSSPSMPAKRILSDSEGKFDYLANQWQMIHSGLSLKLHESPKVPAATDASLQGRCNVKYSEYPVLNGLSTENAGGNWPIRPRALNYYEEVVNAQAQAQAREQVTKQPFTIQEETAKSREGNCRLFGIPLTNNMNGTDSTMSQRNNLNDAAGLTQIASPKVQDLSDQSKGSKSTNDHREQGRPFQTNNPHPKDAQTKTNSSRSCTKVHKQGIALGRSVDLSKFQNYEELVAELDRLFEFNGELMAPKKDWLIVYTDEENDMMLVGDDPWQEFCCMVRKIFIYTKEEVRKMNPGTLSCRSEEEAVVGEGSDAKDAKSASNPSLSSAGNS
UniProt Q38829, sequence (whole entry, looked up): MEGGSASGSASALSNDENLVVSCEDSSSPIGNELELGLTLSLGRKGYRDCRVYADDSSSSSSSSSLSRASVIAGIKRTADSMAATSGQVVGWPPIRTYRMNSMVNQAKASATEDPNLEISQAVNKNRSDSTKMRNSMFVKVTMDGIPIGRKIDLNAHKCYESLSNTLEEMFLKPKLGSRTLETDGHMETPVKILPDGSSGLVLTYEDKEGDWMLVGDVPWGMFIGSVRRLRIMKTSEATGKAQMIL
UniProt O24410, sequence (whole entry, looked up): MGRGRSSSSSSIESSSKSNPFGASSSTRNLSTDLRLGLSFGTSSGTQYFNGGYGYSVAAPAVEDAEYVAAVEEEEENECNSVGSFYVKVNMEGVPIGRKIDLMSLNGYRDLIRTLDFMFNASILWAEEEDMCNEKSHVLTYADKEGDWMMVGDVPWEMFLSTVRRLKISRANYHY
UniProt Q38824, sequence (whole entry, looked up): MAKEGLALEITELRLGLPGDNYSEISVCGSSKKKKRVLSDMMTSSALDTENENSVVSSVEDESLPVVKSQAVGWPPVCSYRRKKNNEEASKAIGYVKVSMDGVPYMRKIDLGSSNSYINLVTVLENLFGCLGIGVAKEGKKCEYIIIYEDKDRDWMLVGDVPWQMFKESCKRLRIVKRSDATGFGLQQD

Set 1
Target: RNA binding protein fox-1 homolog 2, RRM domain, GST-SBP tag (RBFOX2, Homo sapiens, UniProt O43251-10, residues 100-194)
Method: RNA Bind-n-Seq
Form: RNA
Medium: in vitro
Tested at: 365 nM
Setting: natural RNA segment, single round, ends assumed
Relative to: no-protein control
Reading: higher = stronger binding
Target sequence (chain): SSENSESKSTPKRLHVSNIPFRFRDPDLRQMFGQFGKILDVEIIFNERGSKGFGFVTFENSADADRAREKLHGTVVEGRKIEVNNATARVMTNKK
Under “RBNS enrichment (R)”, `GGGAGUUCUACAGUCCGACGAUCUAAUGAACAGUGCCAAAUACACUGUGCAUAUCUAUAAUUUUCCAUUUGAAUGUAUGUUAAUUACUCCCUUCUAUGUGAUGGUCCCAUGCUUAGAGUCAGUGAAGUUCUUGUGGAAUUCUCGGGUGCCAA` is recorded as 0.61.
For `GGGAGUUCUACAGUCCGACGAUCGCGGCAGGGUGCAGCGAGCUGUUUUCACGAGGCCUCCAGGUGACUGGAUGUAAGCUUGCUUGAGAACUAUGGGUUUUAGCUAUUCUGGUGUCUCCCUGAUUUUCUACAGCUGGAAUUCUCGGGUGCCAA`, “RBNS enrichment (R)” read 0.285.
Under “RBNS enrichment (R)”, `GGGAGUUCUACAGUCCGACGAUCGCUGCAGGGGGUGGGCUGCCUGCCUGCUCUGAGCUCUCUCUUGCACGCUCUCUCUUCUCUCCCAGGCUCUGGCUCAUGCACAUGCAACAGGUGCGUCUGUCUAUAUGUCUUGGAAUUCUCGGGUGCCAA` is recorded as 7.86.
`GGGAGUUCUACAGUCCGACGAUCUAGAGUUUUACAUUGUUGAUGAUAGAUUAACAAUAAAGUGAUGUUCUGGUGGAGGUAGACUGAAAUUUUUUUAAUUCAUGUUUUUCAUUUGAUACUUUUAAUUUACACUUUGGAAUUCUCGGGUGCCAA`: “RBNS enrichment (R)” 1.29.
`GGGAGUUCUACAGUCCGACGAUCUUUAAAAAACAAACCUGGCUCUUACCUUUGAUCUUUUCUUCCCCAGAAAUAGUAAACUUGCAGCUGCCCCUAAUGCAGCAUAUUUUUCUUACCAAAGGAGUCUUCAGCCCUGGAAUUCUCGGGUGCCAA`: “RBNS enrichment (R)” 0.669.
`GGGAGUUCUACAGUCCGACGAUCAGCCAAAGAAAAGCCACAUCUAAAAAGCUACUACUAAAAGCCAGAAAGAAAAGUGGAUUUGAACUCAGUGUCACAGACUCUUCUGAGUGUUUUAGGGUCACAGCUAGUGUUGGAAUUCUCGGGUGCCAA` — result for “RBNS enrichment (R)”: 0.408.
For `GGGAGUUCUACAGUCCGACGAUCAGCUCCCAGGAGGGGCUUCUGGGCAGACUCUGGUCAAGAAGCAUCGUGUCUGGCGUUGUGGGGAUGAACUUUUUGUUUUGUUUCUUCCUUUUUUAGUUCUUCAAAGAUAGUGGAAUUCUCGGGUGCCAA`, “RBNS enrichment (R)” read 0.51.
For `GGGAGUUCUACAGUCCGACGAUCGCUUGCAGAAGCCAUCCAUUCACUCCUGGGGUGCAGGGCACGCAAGAGAGCUUCCCAUUGCUUCUGCUCUCCUCAGAGGUCCCGGGCUGGAUGGAGGCUGGUACUUACCCUGGAAUUCUCGGGUGCCAA`, “RBNS enrichment (R)” read 1.04.

Set 2
Sequence: B1 (IAA4)
Method: two-hybrid
Reading: higher = firmer interaction
T1: itself; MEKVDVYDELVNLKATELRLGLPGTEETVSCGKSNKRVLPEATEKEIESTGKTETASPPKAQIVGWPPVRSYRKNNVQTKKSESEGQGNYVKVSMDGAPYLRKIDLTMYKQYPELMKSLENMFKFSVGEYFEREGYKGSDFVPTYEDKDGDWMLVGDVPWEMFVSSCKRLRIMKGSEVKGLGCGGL
B1: IAA4 (Arabidopsis thaliana, UniProt P33077); chain MEKVDVYDELVNLKATELRLGLPGTEETVSCGKSNKRVLPEATEKEIESTGKTETASPPKAQIVGWPPVRSYRKNNVQTKKSESEGQGNYVKVSMDGAPYLRKIDLTMYKQYPELMKSLENMFKFSVGEYFEREGYKGSDFVPTYEDKDGDWMLVGDVPWEMFVSSCKRLRIMKGSEVKGLGCGGL
ARF2 727-859 (Arabidopsis thaliana, UniProt Q94JM3); relative to: out of 4 tests — positive tests: 1.
For IAA6 (Arabidopsis thaliana, UniProt Q38824); relative to: out of 4 tests: positive tests read 0.
T1, itself; relative to: out of 4 tests — positive tests: 2.
The positive tests was 2 (IAA16 (Arabidopsis thaliana, UniProt O24407); relative to: out of 2 tests).
It gave 3 for positive tests (IAA15 (Arabidopsis thaliana, UniProt Q9C966); relative to: out of 4 tests).
The positive tests was 1 (IAA7 (Arabidopsis thaliana, UniProt Q38825); relative to: out of 4 tests).
For IAA11 (Arabidopsis thaliana, UniProt Q38829); weak activation fusion; relative to: out of 4 tests: positive tests read 2.
For IAA20 (Arabidopsis thaliana, UniProt O24410); weak activation fusion; relative to: out of 4 tests: positive tests read 2.

Set 3
Target: ABI1, truncated, D143A, DHFR fusion (Arabidopsis thaliana)
Method: DHFR PCA, deep sequencing
Medium: yeast
Setting: methotrexate growth selection, single substitutions
Together with: (+)-ABA 2500 µM
Relative to: wild-type fitted maximum
Reading: higher = stronger binding
Starting sequence: PYL1, truncated, DHFR fusion (Arabidopsis thaliana); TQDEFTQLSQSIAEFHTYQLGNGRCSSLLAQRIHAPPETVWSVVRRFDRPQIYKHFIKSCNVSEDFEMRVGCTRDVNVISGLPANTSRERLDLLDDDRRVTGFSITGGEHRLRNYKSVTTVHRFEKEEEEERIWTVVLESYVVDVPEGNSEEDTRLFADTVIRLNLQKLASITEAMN
`G71E` — result for “relative binding score”: 80.3%.
For `V78F`, “relative binding score” read 80.6%.
For `G107H`, “relative binding score” read 98.9%.
Under “relative binding score”, `F5I` is recorded as 101%.
For `C25A`, “relative binding score” read 97.9%.
`V40T`: “relative binding score” 85.1%.
Under “relative binding score”, `Y53S` is recorded as 81%.
For `A35P`, “relative binding score” read 0.363%.

Further values, each from its own experiment
Under binding, `ILHRLAPWI` is recorded as “inactive” (HLA class I histocompatibility antigen, A alpha chain, allele A*80:01 (Homo sapiens, UniProt P04439); peptide-MHC binding; peptide; concentration not given).

Excerpt of the above (set 3):
Under “relative binding score”, `F5I` is recorded as 101%.
`V40T`: “relative binding score” 85.1%.
